Published values pooled from the literature.
Numbered parts are unrelated; each lists some results of a single study. Positions count from the first letter of the parent shown.

Sample 1
Target: Interferon regulatory factor 7, full length, phosphomimetic (IRF7, Homo sapiens, UniProt Q92985, residues 1-503, S471D/S472D/S475D/S476D/S477D/S483D/S484D/S487D)
Chain of UniProt Q92985 (whole entry, unmodified, looked up): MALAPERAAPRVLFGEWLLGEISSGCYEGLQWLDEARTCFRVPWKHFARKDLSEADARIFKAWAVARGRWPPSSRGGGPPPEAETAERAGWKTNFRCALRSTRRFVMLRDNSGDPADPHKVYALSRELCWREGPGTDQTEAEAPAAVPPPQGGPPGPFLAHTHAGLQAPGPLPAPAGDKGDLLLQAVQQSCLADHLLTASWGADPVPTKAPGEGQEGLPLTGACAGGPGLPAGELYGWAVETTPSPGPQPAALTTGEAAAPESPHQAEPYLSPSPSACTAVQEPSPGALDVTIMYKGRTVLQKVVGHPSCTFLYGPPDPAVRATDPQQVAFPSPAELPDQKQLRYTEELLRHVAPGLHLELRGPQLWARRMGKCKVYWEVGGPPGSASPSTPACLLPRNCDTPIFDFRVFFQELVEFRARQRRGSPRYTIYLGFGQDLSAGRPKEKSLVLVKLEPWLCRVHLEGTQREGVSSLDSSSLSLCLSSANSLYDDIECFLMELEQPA
Method: protein-binding microarray
Molecule type: double-stranded DNA, one strand shown
Matrix: in vitro
Tested at: 2200 nM top
Notes: 60-bp whole probe
With: salmon DNA 0.4 mg/ml
Reference: random background probes
Reading: higher = stronger binding
Constant ends, left off below: GCCTAGCAC … GTCTTGATTCGCTTGACGCTGCTG
| Sequence | fitted relative affinity [z-score] |
| --- | --- |
| TTAGATTTCCTTATCCTTTAGTGCTAG | 1.55 |
| CTTCCTCTTTCACTGGTCCTGTGCTAG | 3.3 |
| GACGATACCGGGACTGGAGACGTGCTA | -0.293 |
| GTAGATTCCAGTTTCGATTAGTGCTAG | 6.81 |
| GACGATATCAGACAGGAGACGTGCTAG | 0.0157 |
| ATGTTTTTCATTGTTTTTCAGTGCTAG | 2.23 |
| GGCGGTATCCTTTTCCTGACGTGCTAG | 0.639 |
| TCAAGTTTATACCTTAGACTGTGCTAG | 0.0153 |
| GACGGTCTCGGACTGGGGAGGTGCTAG | -0.486 |
| TCAGTTATAATATTATTACTGTGCTAG | 0.222 |
| TCAACTCCCCAACTCGCACTGTGCTAG | 1.01 |
| GACGGTATCAACTATCGGGACGTGCTA | 0.0066 |
| TTAGATATCTGTATCGATTAGTGCTAG | 0.242 |
| TTGGGTTTCCTTATCCTTTAGTGCTAG | 2.01 |
| TTGATTGTGGCTTTTTAATGGTGCTAG | 0.347 |
| TCATAGCTTCCTTTCGCACTGTGCTAG | 2.46 |

Sample 2
Target: CCND3, cyclin fold, Cln2 fusion (human)
Method: yeast growth competition, sequencing
Matrix: yeast
Notes: weak parent motif
Reference: not given
Reading: higher = stronger binding
Starting sequence: EXO1 docking peptide (human); KPECGRVQRAIFQ
| Change | normalised enrichment score |
| --- | --- |
| KPECARVQRAIFQ [G5A] | -0.017 |
| KPEAGRVQRAIFQ [C4A] | 0.00204 |
| KPECGRVQRAIAQ [F12A] | 0.368 |
| APECGRVQRAIFQ [K1A] | -0.0761 |
| KPECGRVQRAIFA [Q13A] | 0.153 |
| KPACGRVQRAIFQ [E3A] | 0.123 |

Sample 3
Target: Fragile X messenger ribonucleoprotein 1, C-terminal low-complexity region (Fmr1, Mus musculus, UniProt P35922)
Method: RNA Bind-n-Seq
Molecule type: RNA
Matrix: in vitro
Tested at: 200 nM
Notes: whole 134-nt RNA, ends assumed
With: 150 mM LiCl
Reference: input library
Reading: higher = stronger binding
All molecules: 7-deaza-guanosine replaces G
Constant ends, left off below: GGGAGUUCUACAGUCCGACGAUC … UGGAAUUCUCGGGUGUCAAGG
| Sequence | log2 enrichment |
| --- | --- |
| UAACUUUAGAGGAGGAUCUGAUGGAUAUGGCAGUUGACGUGGAUUUGGGGAUGGCUAUAAUGGGUAUGGAGGAGGACCUGGAGGUGGCAA | 0.166 |
| AGUCCUGUGCUACACAUCGUAUGUACCGAAUCGGGGAAAGGGGUUUUUGGGGAGGGGAAAGUAUUAUGUUACGCCGUUCGGAUCUGCACU | -0.651 |
| UGGGAGGUGGAUUUUGUUUAUUUUUUUAGCUCAUUUCCAGGGGUGGGAAUUUUUUUUUAAUAUGUGUCAUGAAUAAAGUUGUUUUUGACA | -0.299 |
| CCUCAAGUCCUGUGCUACACAUCGUAUGUACCGAAUCGGGGCGGGGCGGCGGAAAGUAUUAUGUUACGCCGUUCGGAUCUGCACUUCCAG | -1.63 |
| UGGCCCUGGUGGCAUGCGGGGAGGAAGAGGUGGCCUCAUGGAUCGUGGUGGUCCCGGUGGAAUGUUCAGAGGUGGCCGUGGUGGAGUCAG | 0.126 |
| CCUCAAGUCCUGUGCUACACAUCGUAUGUACCGAAUCGGGGAGGGAGGAGGGGAAAGUAUUAUGUUACGCCGUUCGGAUCUGCACUUCCA | -0.921 |
| UUUUCAUACCGAUCUAGAGUUCGUCCUUGCGUGGUUUAUGGUGGUGCCGAUAUUGGUCAGCAGAUUCGAGACUUGGAACGUGGAUGCCAU | -0.67 |
| UGGGAGGUGGAUUUUGUUUAUUUUUUUAGCUCAUUUCCAGGGGUGGGAAUUUUUUUUUAAUAUGUGUCAUGAAUAACGUUGUUUUUGAAA | 0.344 |
| ACCAUGCAGGUGGGCAUCUUUGGGAAGUGGGGCAAGGGGGGGAUAGGGAGGGGGGUAACACUUUGGGAACAGGUGGUCCCAAAUCGUUUC | 1.22 |
| GAUUCCCUCCACAUGCUGCACGCGCAUCUCGCCCCCAGGGGCACUGCCUGGAAGAUUCAGGAGCCUGGGCGGCCUUCGCUUACUCUCACC | 2.19 |
| CUCAAGUCCUGUGCUACACAUCGUAUGUACCGAAUCGGUGGAAAAAGGAAAGGAAAGUAUUAUGUUACGCCGUUCGGAUCUGCACUUCCA | 0.238 |

Single results of other studies
| Molecule | target | assay | test system | conditions | scale | endpoint | result |
| --- | --- | --- | --- | --- | --- | --- | --- |
| PhoQ, residues 284 288 289 292 302 303 ASSHFY | PhoP, residues 12 14 15 18 19 VQALL (Escherichia coli, UniProt P23836) | Sort-seq, refers to: YFP reporter | E. coli | PhoQ-PhoP variant library, with: 10 µM Mg2+ | reference: high Mg2+ state, higher = stronger signaling | fold induction | 22.8 |

Excerpt of the above (sample 1):
| Sequence | fitted relative affinity [z-score] |
| --- | --- |
| GTAGATTCCAGTTTCGATTAGTGCTAG | 6.81 |
| GACGATATCAGACAGGAGACGTGCTAG | 0.0157 |
| ATGTTTTTCATTGTTTTTCAGTGCTAG | 2.23 |
| GGCGGTATCCTTTTCCTGACGTGCTAG | 0.639 |
| TCAAGTTTATACCTTAGACTGTGCTAG | 0.0153 |
| GACGGTCTCGGACTGGGGAGGTGCTAG | -0.486 |
